Measurements collected from several papers.

Structure (SMILES) | assay | system | setting | Cmax
O=C(c1ccccc1)N1C(c2ccc(OCC3CCN(CCCF)C3)cc2)c2ccc(O)cc2CC12CC2 (centres unmarked) | – | C57BL/6 mouse, plasma | intraperitoneal, 25 mg/kg | 5050 ng/mL
COCc1nc(C(F)(F)F)[nH]c1-c1cc(C(=O)N2CC(c3ccc(C#N)cc3)C2)c(C)cc1C | – | mouse, plasma | oral, 10 mg/kg | 7740 ng/mL
N#Cc1cnc2cc(OCC3CCNCC3)c(F)cc2c1Nc1cc(F)c(OCc2cccc(Cl)n2)cc1Cl | – | female CD-1 mouse, plasma | intravenous, 5 mg/kg | 1050 ng/mL
C[C@H]1CN(C(=O)c2cn(-c3ccnc(N)n3)c3cc(C#CC4(O)CCCCC4)ccc23)CCN1 | – | CD-1 mouse, plasma | intravenous, 1 mg/kg | 591 ng/mL
CCCCCCCCCCCCCCCC(=O)OCC(CSC[C@H](N)C(=O)NCC(=O)N[C@@H](CC(=O)O)C(=O)N1CCC[C@H]1C(=O)N[C@@H](CCCCN)C(=O)N[C@@H](Cc1c[nH]cn1)C(=O)N1CCC[C@H]1C(=O)N[C@@H](CCCCN)C(=O)N[C@@H](CO)C(=O)N[C@@H](Cc1ccccc1)C(=O)O)OC(=O)CCCCCCCCCCCCCCC (some centres unmarked) | – | mouse, plasma | subcutaneous, 4 mg/kg | 1340 ng/mL
Cc1cccc(O[C@H]2CCC[C@@H](C(C)CNCc3ccncc3)C2)c1 (relative stereo) | – | female C57BL/6 mouse, plasma | oral, 25 mg/kg | 1820 ng/mL
CC(C)Cn1c(SCC(=O)N2CCc3ccccc3C2)nc2cc(Cl)ccc2c1=O | – | male C57BL/6 mouse, plasma | intraperitoneal, 10 mg/kg | 797 nM
COc1cccc2c1C(=O)c1c(O)c3c(c(O)c1C2=O)C[C@@](O)(C(=O)CO)C[C@@H]3O[C@H]1C[C@H](N)[C@@H](O)[C@H](C)O1 | – | male Kunming mouse, plasma | intravenous, 5 mg/kg | 22100 ng/mL
CCNC(=O)c1noc(-c2cc(C(C)C)c(O)cc2O)c1NC(=O)CCN1CCOCC1 | – | nude mouse, tumour | intraperitoneal, 80 mg/kg, single dose, tumour-bearing | 4050 ng/mL
CCCCC(CC)CNC(=N)NC(=N)NCCCCCCCCNC(=N)NC(=N)NCC(CC)CCCC (centres unmarked) | – | female BALB/c mouse, plasma | intraperitoneal, 5 mg/kg, single dose | 140 ng/mL
CCCc1nc2cc(C(=O)N3CCC4(CC3)CC(=O)c3cc5c(cc3O4)OC(C)(C)CC5)cc(C)c2[nH]1 | – | male C57BL/6 mouse, plasma | oral, 50 mg/kg | 7350 ng/mL
CCOC(=O)c1nc2cc(Cl)c(Cl)cc2nc1N1CCN(C(=O)Nc2ccc(N3CCNCC3)cc2)CC1 | – | male mouse, plasma | oral, 10 mg/kg | 38 ng/mL
O.O=C(O)/C=C\C(=O)O.O=c1[nH]cnc2n[nH]cc12 | – | female BALB/c mouse, plasma | oral, 30 mg/kg | 16000 ng/mL
C[N+]1(CC(=O)OC2CCCCCCCCCCC2)CCCCC1 | – | mouse, plasma | intraperitoneal, 2.5 mg/kg, single dose | 229 ng/mL
CC(C)n1ncc2c(C(=O)NCCN(C)C)cc(C3CC3)nc21 | – | female BALB/c mouse, plasma | intraperitoneal, 50 mg/kg | 916 ng/mL
O=C(Nc1ccc(C(F)(F)F)nc1)N1CCC(Cc2cccc(Oc3ccc(C(F)(F)F)cn3)c2)CC1 | – | male Swiss mouse, blood | oral, 1 mg/kg | 140 nM
CCC/C(=C\C1=C(OC)C(=O)c2ccccc2C1=O)C(=O)NOC | – | mouse, plasma | oral, 25 mg/kg | 476 ng/mL
CN1CCc2cc(Nc3ncc(C(F)(F)F)c(NCc4cc[nH]n4)n3)ccc2C1 | – | C57BL/6 mouse, brain | oral, 50 mg/kg, single dose | 140 ng/mL

Structure (SMILES) | assay | system | setting | Cmax
CN1CCC(N[C@@H]2CCc3[nH]c4c(C(N)=O)ccc(-c5ccccc5Cl)c4c3C2)CC1 | – | mouse, plasma | oral, 10 mg/kg | 98.1 ng/mL
CCc1nc(N)nc(N)c1C#C[C@H](C)c1cc(-c2cc(C)nc(C)c2)ccc1Cl | – | mouse, plasma | intraperitoneal, 5 mg/kg | 4100 ng/mL
Cc1nc(NC(=O)N2CCC[C@H]2C(N)=O)sc1-c1csc(C(C)(C)C)n1 | – | male CD-1 mouse, plasma | intraperitoneal, 10 mg/kg, single dose | 8250 nM
O=C1CCC(N2C(=O)c3ccc(N4CCC(C(=O)N5CCC(CCN6CCC(CNC(=O)c7cccc(-c8noc(C(F)(F)F)n8)c7)(c7nc(-c8ccccc8)cs7)CC6)CC5)CC4)cc3C2=O)C(=O)N1 (centres unmarked) | – | CD-1 mouse, plasma | oral, 30 mg/kg | 238 ng/mL
CN(C)CCNC(=O)/C=C/[C@H](Cc1ccccc1)Nc1ccnc2cc(Cl)ccc12 | – | CD-1 mouse, plasma | oral, 5 mg/kg, single dose | 10.5 ng/mL
CN1CC[C@H](c2c(O)cc(O)c3c(=O)cc(/C=C/c4c(Cl)cccc4Cl)oc23)[C@H](O)C1 | – | male BALB/c mouse, plasma | oral, 50 mg/kg | 1030 ng/mL
CCS(=O)(=O)c1ccccc1C(=O)N1CCN(c2nc3ccc(F)cc3s2)C[C@@H]1C | – | mouse, plasma | oral, 3 mg/kg | 613 ng/mL
C[C@@H](COc1ccc(F)cc1)C(=O)n1nc(N)c2ccc(CO)cc21 | – | male C57BL/6 mouse, plasma | oral, 10 mg/kg | 3400 nM
O=C1OC2(c3ccccc31)c1cc(I)c(O)c(I)c1Oc1c2cc(I)c(O)c1I | – | female C57BL/6 mouse, plasma | intraperitoneal, 50 mg/kg | 26800 ng/mL
CC(C)(C)OC(=O)N[C@H](Cc1ccccc1)[C@@H](O)CN1CCC(N2CCCCC2)CC1 | HPLC | Swiss mouse, plasma | subcutaneous, 20 mg/kg, single dose | 200 ng/mL
Nc1ccn(C[C@@H](CO)OCP(=O)(O)OCCCS(=O)(=O)CCCCCCCCCCC2CCC2)c(=O)n1 | – | mouse, plasma | intravenous, 3 mg/kg, single dose | 1160 ng/mL
Cc1cc(NCCOC(C)C)c2nc(N3CCOC[C@H]3C)cc(=O)n2c1 | – | C57BL/6 mouse, plasma | intraperitoneal, 10 mg/kg, single dose | 14300 ng/mL
Cc1cc(O)cc(O)c1C(=O)c1c2c3c(c(O)cc(C)c3oc1=O)C(=O)c1c(O)cc(O)cc1-2 | – | male Kunming mouse, plasma | intraperitoneal, 30 mg/kg | 39500 ng/mL
CN1/C(=C/C=C/c2cc(-c3ccccc3)cc(-c3ccccc3)[o+]2)C(C)(C)c2ccccc21 | – | male CD-1 mouse, plasma | intravenous, 1 mg/kg, single dose | 101 ng/mL
CCC(=C(c1ccc(Cl)cc1)c1ccc(OCCN2CCOCC2)cc1)c1ccc(OC)cc1 | – | female C57BL/6 mouse, plasma | oral, 400 mg/kg, single dose | 3540 ng/mL
CC(=O)N[C@@H](Cc1ccc(O)cc1)CN(CC(=O)N[C@@H](CCCCN)CN(CC(=O)N[C@@H](Cc1ccccc1)CN(CC(=O)N[C@H]1CCCCNc2c(F)c(F)c(c(F)c2F)S(=O)(=O)c2c(F)c(F)c(c(F)c2F)NCCCC[C@@H](CN(CC(=O)N[C@@H](C)CN(CC(N)=O)S(C)(=O)=O)S(C)(=O)=O)NC(=O)CN(S(=O)(=O)CC(C)C)C[C@H](CC(C)C)NC(=O)CN(S(=O)(=O)CCN)C1)S(=O)(=O)CC(C)C)S(=O)(=O)CCN)S(C)(=O)=O | – | C57BL/6 mouse, plasma | intraperitoneal, 50 mg/kg | 38900 ng/mL
COc1ccc(OC)c(C(=Cc2ccc(O)c(OC)c2)C(=O)NCCc2ccc(O)cc2)c1 | – | Kunming mouse, plasma | oral, 50 mg/kg | ~361 ng/mL

A few entries again:
Structure (SMILES) | assay | system | setting | Cmax
CN1CCC(N[C@@H]2CCc3[nH]c4c(C(N)=O)ccc(-c5ccccc5Cl)c4c3C2)CC1 | – | mouse, plasma | oral, 10 mg/kg | 98.1 ng/mL
CCc1nc(N)nc(N)c1C#C[C@H](C)c1cc(-c2cc(C)nc(C)c2)ccc1Cl | – | mouse, plasma | intraperitoneal, 5 mg/kg | 4100 ng/mL
